Published values of several laboratories.
Every numbered part comes from another study and shows a few of its results, in no order.

Study 1 — method: RNA Bind-n-Seq; molecule type: RNA; medium: in vitro; concentration: 1 µM; notes: whole 134-nt RNA, ends assumed; with: 150 mM KCl; reference: input library; reading: higher = stronger binding
Target: Ras GTPase-activating protein-binding protein 1, C-terminal RGG region (G3BP1, Homo sapiens, UniProt Q13283)
UniProt Q13283, sequence (whole entry, looked up): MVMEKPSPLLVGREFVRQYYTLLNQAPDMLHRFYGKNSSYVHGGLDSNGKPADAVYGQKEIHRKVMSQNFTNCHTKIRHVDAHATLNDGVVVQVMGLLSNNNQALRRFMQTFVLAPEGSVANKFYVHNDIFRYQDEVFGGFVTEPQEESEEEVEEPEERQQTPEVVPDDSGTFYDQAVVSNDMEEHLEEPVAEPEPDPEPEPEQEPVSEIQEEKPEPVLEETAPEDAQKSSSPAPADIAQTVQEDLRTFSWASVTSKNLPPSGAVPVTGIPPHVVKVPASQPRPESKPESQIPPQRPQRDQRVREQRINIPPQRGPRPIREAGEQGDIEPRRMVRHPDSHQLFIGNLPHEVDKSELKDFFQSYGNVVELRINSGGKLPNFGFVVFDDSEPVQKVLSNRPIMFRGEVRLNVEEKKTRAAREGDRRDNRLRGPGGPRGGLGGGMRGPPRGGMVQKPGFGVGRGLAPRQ
All sequences stand within: GGGAGUUCUACAGUCCGACGAUC … UGGAAUUCUCGGGUGUCAAGG
Oligonucleotide | log2 enrichment
GUCCUGUGCUACACAUCGUAUGUACCGAAUCGGCCCCCCGGCCCCCCGGCCCCCCGGGAAAGUAUUAUGUUACGCCGUUCGGAUCUGCAC | -1.09
AGUCCUGUGCUACACAUCGUAUGUACCGAAUCGGGGCCCCGGGCCCCGGGCCCCGGGAAAGUAUUAUGUUACGCCGUUCGGAUCUGCACU | -2.17
CUCAAGUCCUGUGCUACACAUCGUAUGUACCGAAUCGGUUUUUUUGGAGGUGGAAAGUAUUAUGUUACGCCGUUCGGAUCUGCACUUCCA | -1.01
AGUCCUGUGCUACACAUCGUAUGUACCGAAUCGGUUUUUGGGGUUUUUGGUUUUUGGGAAAGUAUUAUGUUACGCCGUUCGGAUCUGCAC | -1.25
UGGGAGGUGGAUUUUGUUUAUUUUUUUAGCUCAUUUCCAGGGGUGGGAAUUUUUUUUUAAUAUGUAUCAUGAAUAAAGUUGUUUUUGAAA | 3.3

Study 2 — method: Spec-seq; molecule type: double-stranded DNA, one strand shown; medium: in vitro; concentration: not given; notes: whole probe, mean of replicates; reference: not given; reading: lower = stronger binding; all sequences stand within: GAGTCGTCTCGTCAGCAC … CCGTAGAGCACTCAGGTC
Target: Transcription factor SOX-2, HMG box (Sox2, Mus musculus, UniProt P48432, residues 41-119)
UniProt P48432, sequence (41-119, looked up): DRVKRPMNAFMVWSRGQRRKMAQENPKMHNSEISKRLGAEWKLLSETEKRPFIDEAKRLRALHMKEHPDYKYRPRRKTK
Oligonucleotide | relative binding energy
CATCATT | 0.00402 ln ratio
AATTGTT | -2.52 ln ratio
CATAAGG | -0.458 ln ratio
GCTTGTT | -0.248 ln ratio
TCACGTT | 0.987 ln ratio
GGTAGTT | 0.984 ln ratio
CATGTGG | 0.371 ln ratio
CATCTCA | 0.768 ln ratio
TTTGGTT | 0.172 ln ratio
TTCGGTT | 1.11 ln ratio

Study 3 — method: protein-binding microarray; molecule type: double-stranded DNA, one strand shown; medium: in vitro; concentration: 2540 nM top; notes: 60-bp whole probe; with: salmon DNA 0.4 mg/ml; reference: random background probes; reading: higher = stronger binding; all sequences stand within: GCCTAGCAC … GTCTTGATTCGCTTGACGCTGCTG
Target: Interferon regulatory factor 3, full length, phosphomimetic (IRF3, Homo sapiens, UniProt Q14653, residues 1-427, S386D/S396D/S398D/S402D/T404D/S405D)
UniProt Q14653, sequence (whole entry, unmodified, looked up): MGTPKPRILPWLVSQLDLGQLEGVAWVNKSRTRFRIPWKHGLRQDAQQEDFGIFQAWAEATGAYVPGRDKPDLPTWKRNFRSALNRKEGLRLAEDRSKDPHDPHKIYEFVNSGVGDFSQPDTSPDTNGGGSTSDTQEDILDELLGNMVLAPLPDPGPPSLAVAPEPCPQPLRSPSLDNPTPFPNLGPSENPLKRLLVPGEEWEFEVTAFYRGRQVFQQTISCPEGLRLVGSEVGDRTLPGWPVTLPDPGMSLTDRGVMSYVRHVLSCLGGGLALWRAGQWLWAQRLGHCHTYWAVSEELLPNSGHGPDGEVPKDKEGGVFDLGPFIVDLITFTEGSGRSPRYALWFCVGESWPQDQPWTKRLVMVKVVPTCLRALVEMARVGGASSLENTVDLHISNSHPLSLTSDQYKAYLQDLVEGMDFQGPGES
Oligonucleotide | fitted relative affinity
TTAGCTCTCCTTATCCTTTAGTGCTAG | 1.83 z-score
TTAGAACTGGGGACTGGTTTAGTGCTA | -0.905 z-score
ATAGGACTGCTACTGCTTTAGTGCTAG | -0.745 z-score
AGACAGAAGGGAAACAGGTTGGTGCTA | 2.22 z-score
GACGGTCTCCGTATCGGGACGTGCTAG | 2.3 z-score
TCTCCTACAGGTTCTCTGAGAGTGCTA | 0.37 z-score
TCACATTTCCTTTACATACTGTGCTAG | 3.15 z-score
TTAAGACTGGACTTTCGGTTAGTGCTA | 1.24 z-score
ACTCGTTTACATTTTCCAAAGTGCTAG | 2.58 z-score
TCAGGAAACTTAAACTAGACTGTGCTA | 0.386 z-score
GACGGACTGGGATTCGGGACGTGCTAG | -0.572 z-score
CTCTACTTGTGTCTAGAGATGTGCTAG | -0.0418 z-score
TTAGTACTGAGTCTCGATTAGTGCTAG | -0.157 z-score
GACGATTTAAGTTCCGAGACGTGCTAG | 0.825 z-score
GATGTTTTGAGTTTTCCTTCGTGCTAG | 1.39 z-score
TTAGGTATCCTTATCCTTGAGTGCTAG | 5.28 z-score
TTAGGACTGGGGCTCGGTTAGTGCTAG | -1.08 z-score

Study 4 — method: protein binding microarray; molecule type: double-stranded DNA, one strand shown; medium: in vitro; concentration: not given; reference: not given; reading: higher = stronger binding
Target: Histone acetyltransferase KAT6A, winged helix 1, GST fusion (KAT6A, Homo sapiens, UniProt Q92794, residues 1-85)
Notes: 8-mer, flanks averaged, mean of 2 arrays, mostly near background
Target sequence (chain): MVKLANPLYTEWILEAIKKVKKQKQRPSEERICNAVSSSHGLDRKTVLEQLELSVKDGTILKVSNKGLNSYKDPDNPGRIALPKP
Oligonucleotide | E-score
GAAAACCC | 0.0611
CCGGGGAC | 0.221
AACTTACC | -0.0249
ACAACCGT | -0.00222
AAAAGTTG | -0.0744
CCATTAAA | -0.0394
TCGCTAGA | -0.111
AATATATG | 0.0227
AGTACTGC | 0.104
ACCGGTAT | 0.186
CACGCCCC | 0.0842
GAGAACTA | -0.13
ATGGGGGC | -0.0981
AGTGGTAT | -0.158
ATATCCCC | -0.0627
AACCCCCG | 0.266
CGTTGACC | 0.0317

Study 5 — method: aptamer microarray, sandwich; molecule type: DNA with 2'F-ANA; medium: in vitro; concentration: 200 nM; with: Cy3 exosite-II aptamer, 400 nM; reading: higher = stronger binding; oligonucleotide: GGTTGGTGTGGTTGG
Target: Prothrombin, mature alpha-thrombin (F2, Homo sapiens, UniProt P00734)
Notes: whole 15-mer aptamer, many near background
Modification | mean fluorescence intensity
2'F-ANA at 1 3 6 7 8 10 12 13 15 | 110 a.u.
2'F-ANA at 1 3 4 9 10 12 14 15 | 55.5 a.u.
2'F-ANA at 2 5 6 7 8 10 13 | 42.3 a.u.
2'F-ANA at 3 5 10 11 14 | 52.4 a.u.
2'F-ANA at 1 3 4 6 7 8 11 14 | 74 a.u.
2'F-ANA at 1 3 5 6 9 10 11 12 15 | 58.3 a.u.
2'F-ANA at 1 2 3 5 6 11 13 | 50.8 a.u.
2'F-ANA at 2 4 14 | 114 a.u.
2'F-ANA at 1 3 4 6 7 8 12 14 15 | 95.3 a.u.
2'F-ANA at 2 3 5 6 10 12 | 57.9 a.u.
2'F-ANA at 2 5 7 8 10 11 13 | 49.1 a.u.
2'F-ANA at 1 3 4 5 6 8 10 11 12 13 15 | 49.6 a.u.
2'F-ANA at 6 7 8 9 10 11 12 13 14 15 | 104 a.u.
2'F-ANA at 3 4 5 11 12 13 14 | 53.2 a.u.
2'F-ANA at 2 3 4 8 10 12 14 15 | 192 a.u.
2'F-ANA at 3 4 6 7 11 13 15 | 427 a.u.

Repeated from above (study 4):
Oligonucleotide | E-score
ACAACCGT | -0.00222
AGTGGTAT | -0.158
ATGGGGGC | -0.0981
ATATCCCC | -0.0627
AACTTACC | -0.0249
CCGGGGAC | 0.221
CACGCCCC | 0.0842
GAAAACCC | 0.0611
AAAAGTTG | -0.0744
AATATATG | 0.0227
